# Measurements from different studies.
# Numbered parts are unrelated; each lists some results of a single study. Values joined by “and” are separate records of one study, mostly repeats; a detail may differ.
# UniProt P49759, sequence (whole entry, looked up): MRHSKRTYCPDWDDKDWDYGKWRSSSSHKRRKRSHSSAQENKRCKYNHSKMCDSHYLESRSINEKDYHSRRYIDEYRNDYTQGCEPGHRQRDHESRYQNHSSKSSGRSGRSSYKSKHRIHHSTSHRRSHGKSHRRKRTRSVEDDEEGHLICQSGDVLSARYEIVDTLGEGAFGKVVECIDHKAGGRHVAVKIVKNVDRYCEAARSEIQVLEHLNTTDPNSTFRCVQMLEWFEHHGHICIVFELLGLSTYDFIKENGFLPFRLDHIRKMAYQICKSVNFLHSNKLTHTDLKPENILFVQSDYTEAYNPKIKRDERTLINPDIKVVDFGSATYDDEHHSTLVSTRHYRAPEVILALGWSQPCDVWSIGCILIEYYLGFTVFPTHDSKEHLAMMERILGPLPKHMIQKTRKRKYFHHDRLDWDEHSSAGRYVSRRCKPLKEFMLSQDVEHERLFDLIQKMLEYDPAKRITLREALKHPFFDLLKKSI
# UniProt Q9NQU5, sequence (whole entry, looked up): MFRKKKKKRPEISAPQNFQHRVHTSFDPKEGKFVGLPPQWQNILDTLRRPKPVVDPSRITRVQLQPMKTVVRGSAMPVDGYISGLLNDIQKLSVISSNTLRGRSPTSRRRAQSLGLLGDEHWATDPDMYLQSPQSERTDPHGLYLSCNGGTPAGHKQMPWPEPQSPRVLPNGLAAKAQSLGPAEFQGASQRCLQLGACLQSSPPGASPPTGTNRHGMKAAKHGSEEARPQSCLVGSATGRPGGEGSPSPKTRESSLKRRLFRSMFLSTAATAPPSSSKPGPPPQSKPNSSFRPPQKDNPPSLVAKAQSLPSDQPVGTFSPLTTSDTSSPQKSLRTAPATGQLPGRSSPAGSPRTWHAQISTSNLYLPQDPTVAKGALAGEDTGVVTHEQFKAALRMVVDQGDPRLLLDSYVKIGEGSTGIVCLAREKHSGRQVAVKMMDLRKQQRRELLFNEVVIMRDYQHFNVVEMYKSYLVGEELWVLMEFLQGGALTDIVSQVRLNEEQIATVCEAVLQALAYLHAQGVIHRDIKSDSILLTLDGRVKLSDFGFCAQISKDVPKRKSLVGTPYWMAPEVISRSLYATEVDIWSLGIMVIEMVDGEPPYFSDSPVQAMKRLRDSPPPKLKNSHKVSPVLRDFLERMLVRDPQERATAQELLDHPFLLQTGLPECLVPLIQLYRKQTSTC
# UniProt O43283, sequence (whole entry, looked up): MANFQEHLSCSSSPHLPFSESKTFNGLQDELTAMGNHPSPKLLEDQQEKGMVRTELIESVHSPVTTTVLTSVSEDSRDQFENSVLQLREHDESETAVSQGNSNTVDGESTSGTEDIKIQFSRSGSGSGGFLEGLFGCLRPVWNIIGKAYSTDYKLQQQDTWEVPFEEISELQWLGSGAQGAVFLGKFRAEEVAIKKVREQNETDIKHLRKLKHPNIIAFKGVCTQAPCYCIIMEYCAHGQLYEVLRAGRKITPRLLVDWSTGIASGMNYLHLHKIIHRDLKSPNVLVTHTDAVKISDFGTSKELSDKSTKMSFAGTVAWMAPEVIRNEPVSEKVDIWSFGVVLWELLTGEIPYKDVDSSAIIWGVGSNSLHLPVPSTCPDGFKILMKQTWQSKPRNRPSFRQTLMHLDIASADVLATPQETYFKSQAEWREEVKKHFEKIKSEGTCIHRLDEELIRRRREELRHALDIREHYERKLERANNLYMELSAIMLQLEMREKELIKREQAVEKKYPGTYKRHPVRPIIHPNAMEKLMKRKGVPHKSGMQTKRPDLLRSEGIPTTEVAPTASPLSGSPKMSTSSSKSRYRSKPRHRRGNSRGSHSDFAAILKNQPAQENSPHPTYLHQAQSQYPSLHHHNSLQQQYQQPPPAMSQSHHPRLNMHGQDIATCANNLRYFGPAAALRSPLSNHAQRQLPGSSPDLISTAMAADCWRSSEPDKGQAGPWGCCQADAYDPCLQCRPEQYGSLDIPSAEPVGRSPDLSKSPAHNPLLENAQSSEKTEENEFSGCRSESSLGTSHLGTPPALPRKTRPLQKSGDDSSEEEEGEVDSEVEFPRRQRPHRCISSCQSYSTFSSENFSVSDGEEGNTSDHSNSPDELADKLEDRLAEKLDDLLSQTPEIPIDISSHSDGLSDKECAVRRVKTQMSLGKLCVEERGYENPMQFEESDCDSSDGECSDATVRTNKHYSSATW
# UniProt Q06187, sequence (whole entry, looked up): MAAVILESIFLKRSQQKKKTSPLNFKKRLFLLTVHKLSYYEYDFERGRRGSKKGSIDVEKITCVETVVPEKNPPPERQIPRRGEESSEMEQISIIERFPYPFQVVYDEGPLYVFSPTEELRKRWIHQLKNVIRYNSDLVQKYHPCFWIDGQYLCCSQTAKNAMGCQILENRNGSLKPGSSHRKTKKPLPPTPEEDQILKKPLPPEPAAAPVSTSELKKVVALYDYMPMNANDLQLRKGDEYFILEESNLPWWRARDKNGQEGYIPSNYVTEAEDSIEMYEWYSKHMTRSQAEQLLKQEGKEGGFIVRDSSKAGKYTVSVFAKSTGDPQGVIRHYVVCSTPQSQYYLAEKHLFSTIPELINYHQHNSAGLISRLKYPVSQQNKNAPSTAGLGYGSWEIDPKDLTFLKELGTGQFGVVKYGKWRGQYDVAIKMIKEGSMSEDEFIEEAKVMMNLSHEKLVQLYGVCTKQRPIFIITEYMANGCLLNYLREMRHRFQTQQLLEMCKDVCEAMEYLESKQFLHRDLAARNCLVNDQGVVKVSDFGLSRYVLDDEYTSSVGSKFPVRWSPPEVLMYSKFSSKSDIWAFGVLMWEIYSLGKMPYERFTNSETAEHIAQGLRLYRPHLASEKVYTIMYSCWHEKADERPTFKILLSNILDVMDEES
# UniProt P29317, sequence (whole entry, looked up): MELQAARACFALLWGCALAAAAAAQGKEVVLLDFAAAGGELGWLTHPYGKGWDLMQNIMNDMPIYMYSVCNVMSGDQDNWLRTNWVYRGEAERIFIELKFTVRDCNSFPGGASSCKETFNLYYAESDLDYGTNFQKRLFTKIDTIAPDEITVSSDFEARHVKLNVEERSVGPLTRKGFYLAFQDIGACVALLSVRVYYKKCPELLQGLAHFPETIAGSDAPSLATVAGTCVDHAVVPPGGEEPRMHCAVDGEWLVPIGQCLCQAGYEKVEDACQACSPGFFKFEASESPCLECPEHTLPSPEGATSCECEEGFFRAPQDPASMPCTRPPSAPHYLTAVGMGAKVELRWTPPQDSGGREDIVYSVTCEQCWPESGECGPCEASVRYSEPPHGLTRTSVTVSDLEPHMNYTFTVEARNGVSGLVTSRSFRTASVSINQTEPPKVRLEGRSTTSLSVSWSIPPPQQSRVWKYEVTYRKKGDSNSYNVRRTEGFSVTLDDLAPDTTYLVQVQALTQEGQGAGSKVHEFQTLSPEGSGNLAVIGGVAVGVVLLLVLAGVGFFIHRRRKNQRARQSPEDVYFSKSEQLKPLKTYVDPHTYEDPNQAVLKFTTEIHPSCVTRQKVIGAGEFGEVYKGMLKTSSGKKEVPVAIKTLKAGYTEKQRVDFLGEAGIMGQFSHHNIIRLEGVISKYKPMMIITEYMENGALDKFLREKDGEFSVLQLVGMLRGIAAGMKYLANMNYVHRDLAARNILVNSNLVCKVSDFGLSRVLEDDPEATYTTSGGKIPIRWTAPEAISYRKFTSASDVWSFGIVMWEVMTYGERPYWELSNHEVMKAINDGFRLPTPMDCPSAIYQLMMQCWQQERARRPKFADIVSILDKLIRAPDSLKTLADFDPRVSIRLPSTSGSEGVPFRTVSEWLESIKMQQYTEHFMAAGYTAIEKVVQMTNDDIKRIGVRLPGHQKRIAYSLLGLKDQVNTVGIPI
# UniProt Q96PY6, sequence (whole entry, looked up): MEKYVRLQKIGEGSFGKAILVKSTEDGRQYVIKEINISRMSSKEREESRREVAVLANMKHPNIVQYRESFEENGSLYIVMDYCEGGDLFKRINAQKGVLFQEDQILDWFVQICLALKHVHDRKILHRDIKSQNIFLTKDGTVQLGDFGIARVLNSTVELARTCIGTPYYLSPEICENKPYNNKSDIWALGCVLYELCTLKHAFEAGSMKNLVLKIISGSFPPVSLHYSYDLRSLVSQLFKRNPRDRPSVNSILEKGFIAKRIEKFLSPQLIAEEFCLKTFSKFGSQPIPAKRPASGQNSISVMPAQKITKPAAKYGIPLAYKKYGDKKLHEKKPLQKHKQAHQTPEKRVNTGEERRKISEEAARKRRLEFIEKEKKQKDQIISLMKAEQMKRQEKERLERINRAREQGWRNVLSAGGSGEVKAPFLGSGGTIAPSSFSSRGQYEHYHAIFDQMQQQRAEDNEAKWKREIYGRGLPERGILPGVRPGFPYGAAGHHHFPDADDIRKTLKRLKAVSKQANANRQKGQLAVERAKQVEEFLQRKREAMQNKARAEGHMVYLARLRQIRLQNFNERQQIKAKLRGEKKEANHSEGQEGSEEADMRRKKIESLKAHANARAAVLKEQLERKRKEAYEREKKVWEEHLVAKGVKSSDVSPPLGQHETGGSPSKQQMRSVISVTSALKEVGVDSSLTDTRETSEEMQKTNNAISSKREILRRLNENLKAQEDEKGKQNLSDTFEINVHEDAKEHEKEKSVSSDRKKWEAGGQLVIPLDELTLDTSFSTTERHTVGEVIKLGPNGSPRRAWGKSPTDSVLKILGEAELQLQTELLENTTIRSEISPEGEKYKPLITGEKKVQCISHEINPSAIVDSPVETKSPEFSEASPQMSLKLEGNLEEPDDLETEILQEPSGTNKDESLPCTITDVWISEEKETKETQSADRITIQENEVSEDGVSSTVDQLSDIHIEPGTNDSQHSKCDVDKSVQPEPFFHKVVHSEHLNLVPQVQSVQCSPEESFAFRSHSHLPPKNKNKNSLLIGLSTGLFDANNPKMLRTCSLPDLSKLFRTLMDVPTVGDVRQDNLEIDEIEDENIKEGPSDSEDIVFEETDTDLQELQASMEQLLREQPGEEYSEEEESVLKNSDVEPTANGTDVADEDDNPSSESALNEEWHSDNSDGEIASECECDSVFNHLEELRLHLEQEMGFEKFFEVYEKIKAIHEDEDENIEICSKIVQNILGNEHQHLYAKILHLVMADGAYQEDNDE

# Set 1 — cell line: A-375; tested at: 100 µM; time: 36 h
Structure (SMILES),viability
CCCCOc1ccc(C(=O)CCN2CCCCC2)cc1,2.25%
CCCCCCCCCCCCCCCCOc1nc2ccc(C)cc2c(=O)o1,103%
Cc1cn([C@H]2C[C@H](N=[N+]=[N-])[C@@H](CO)O2)c(=O)[nH]c1=O,93.4%
COC(c1ccccc1)(c1ccccc1)[C@H](Oc1nc(C)cc(C)n1)C(=O)O,97%
CO/N=C(\C(=O)N[C@@H]1C(=O)N2C(C(=O)O)=C(COC(C)=O)CS[C@H]12)c1csc(N)n1,112%
CC(=O)O[C@H]1Cc2ccccc2N(C(N)=O)c2ccccc21,111%
O=C1c2c(O)cccc2C([C@@H]2O[C@H](CO)[C@@H](O)[C@H](O)[C@H]2O)c2cc(CO)cc(O)c21 (stereo partly drawn),95%
C[Se]CC[C@H](N)C(=O)O,109%
C[C@]12CCC(=O)C=C1CC[C@@H]1[C@@H]2C(=O)C[C@@]2(C)[C@H]1CC[C@]2(O)C(=O)CO,112%
CO/N=C(\C(=O)N[C@@H]1C(=O)N2C(C(=O)O)=C(CSC(=O)c3ccco3)CS[C@H]12)c1csc(N)n1,95%

# Set 2 — Compound: O=C(c1ccccc1)c1ccc(N2CCOCC2)cc1O; read-out: enzyme activity; action: inhibitor; tested at: 0.5 µM; baseline: control
target,remaining activity
"Cyclin-dependent kinase 2, with cyclin E (CDK2, Homo sapiens, UniProt P24941)",99.6%
"EPHA2 (Homo sapiens, UniProt P29317)",104%
"CAMKK1 (Homo sapiens, UniProt Q8N5S9)",107%
"TYRO3 (Homo sapiens, UniProt Q06418)",101%
"PAK6 (Homo sapiens, UniProt Q9NQU5)",93.6%
"FLT1 (Homo sapiens, UniProt P17948)",97.4%
"MAP3K20 (Homo sapiens, UniProt Q9NYL2)",95%
"PRKCZ (Homo sapiens, UniProt Q05513)",85%
"CLK2 (Homo sapiens, UniProt P49760)",106%
"CAMK1 (Homo sapiens, UniProt Q14012)",97.5%
"CSNK1D (Homo sapiens, UniProt P48730)",100%
"RPS6KA3 (Homo sapiens, UniProt P51812)",104%
"SGK2 (Homo sapiens, UniProt Q9HBY8)",105%
"JAK1 (Homo sapiens, UniProt P23458)",108%
"IGF1R (Homo sapiens, UniProt P08069)",106%
"CLK1 (Homo sapiens, UniProt P49759)",108%
"TEC (Homo sapiens, UniProt P42680)",119%
"CSNK1E (Homo sapiens, UniProt P49674)",97.7%
"PRKCQ (Homo sapiens, UniProt Q04759)",92.5%
"SRPK1 (Homo sapiens, UniProt Q96SB4)",94.2%

# Set 3 — technique: Incucyte 3D growth; tested at: 30 µM; direction: higher = more growth
# SMILES: CC(C)(C(=O)O)[C@H](NC(=O)Cc1cccc(I)c1)c1ccc2oc(=O)[nH]c2c1
cell line,time,spheroid area
KP-4,150 h,2.4e+07 a.u. and 2.18e+07 a.u. and 2.53e+07 a.u. and 1.68e+07 a.u. and 2.33e+07 a.u. and 2.03e+07 a.u.
NCI-H358,240 h,9.28e+06 a.u. and 9.08e+06 a.u. and 8.7e+06 a.u. and 8.58e+06 a.u. and 1.09e+07 a.u. and 7.75e+06 a.u.
PC-9,132 h,9.72e+08 a.u. and 1.04e+09 a.u. and 1.03e+09 a.u. and 9.61e+08 a.u. and 1e+09 a.u. and 1.01e+09 a.u.
MEL-JUSO,306.52 h,4.04e+07 a.u. and 2.66e+07 a.u. and 2.23e+07 a.u. and 2.58e+07 a.u. and 2.65e+07 a.u. and 2.8e+07 a.u.
MEL-JUSO,204.52 h,2.04e+07 a.u. and 2.07e+07 a.u. and 1.56e+07 a.u. and 1.71e+07 a.u. and 1.64e+07 a.u. and 1.51e+07 a.u.
MEL-JUSO,492.52 h,2.63e+07 a.u. and 5.13e+07 a.u. and 3.01e+07 a.u. and 7.26e+07 a.u. and 2.47e+07 a.u. and 1.86e+07 a.u.
A375,420.52 h,1.81e+08 a.u. and 1.49e+08 a.u. and 1.65e+08 a.u. and 1.72e+08 a.u. and 1.78e+08 a.u. and 1.59e+08 a.u.
IPC-298,114 h,2.67e+07 a.u. and 2.76e+07 a.u. and 3.22e+07 a.u. and 2.14e+07 a.u. and 2.6e+07 a.u. and 2.88e+07 a.u.
A375,84.52 h,5.11e+07 a.u. and 5.33e+07 a.u. and 4.11e+07 a.u. and 4.97e+07 a.u. and 6.31e+07 a.u. and 4.96e+07 a.u.
NCI-H1437,186 h,4.33e+07 a.u. and 6.86e+07 a.u. and 3.35e+07 a.u. and 6.53e+07 a.u. and 4.8e+07 a.u. and 3.62e+07 a.u.
A375,186.52 h,1.39e+08 a.u. and 1.21e+08 a.u. and 1.49e+08 a.u. and 1.29e+08 a.u. and 1.37e+08 a.u.
IPC-298,240 h,3.78e+07 a.u. and 4.43e+07 a.u. and 2.68e+07 a.u. and 3.04e+07 a.u. and 3.24e+07 a.u. and 2.73e+07 a.u.

# Set 4 — technique: competition with immobilised ligand; tested at: 1 µM
# SMILES: CC1=C(C#N)[C@@H](c2ccc3[nH]nc(C)c3c2)C(C#N)=C(c2ccc(Cl)cc2)N1
target,read-out,remaining binding [%]
"CASK (Homo sapiens, UniProt O14936)",cell-free assay,66.2
"MAP3K13 (Homo sapiens, UniProt O43283)",cell-free assay,100
"NEK1 (Homo sapiens, UniProt Q96PY6)",cell-free assay,100
"BTK (Homo sapiens, UniProt Q06187)",cell-free assay,99.9
"EPHA6 (Homo sapiens, UniProt Q9UF33)",cell-free assay,100
"NEK9 (Homo sapiens, UniProt Q8TD19)",cell-free assay,95.6
"MAP3K10 (Homo sapiens, UniProt Q02779)",cell-free assay,100
"Tyrosine-protein kinase ABL1, phosphorylated (ABL1, Homo sapiens, UniProt P00519, E255K)",binding,83.5
"SIK3 (Homo sapiens, UniProt Q9Y2K2)",cell-free assay,100
"CDK3 (Homo sapiens, UniProt Q00526)",cell-free assay,100
"GRK4 (Homo sapiens, UniProt P32298)",cell-free assay,100
"STK26 (Homo sapiens, UniProt Q9P289)",cell-free assay,100
"EGFR (Homo sapiens, UniProt P00533)",cell-free assay,100
"MAST1 (Homo sapiens, UniProt Q9Y2H9)",cell-free assay,100
"RET (Homo sapiens, UniProt P07949, V804L)",cell-free assay,96.4
"NTRK1 (Homo sapiens, UniProt P04629)",cell-free assay,84.6
"TAOK2 (Homo sapiens, UniProt Q9UL54)",cell-free assay,100
"RPS6KB1 (Homo sapiens, UniProt P23443)",cell-free assay,62.2

# Repeated from above (set 4):
target,read-out,remaining binding [%]
"NEK9 (Homo sapiens, UniProt Q8TD19)",cell-free assay,95.6
"MAP3K10 (Homo sapiens, UniProt Q02779)",cell-free assay,100
"Tyrosine-protein kinase ABL1, phosphorylated (ABL1, Homo sapiens, UniProt P00519, E255K)",binding,83.5
"SIK3 (Homo sapiens, UniProt Q9Y2K2)",cell-free assay,100
"CDK3 (Homo sapiens, UniProt Q00526)",cell-free assay,100
"GRK4 (Homo sapiens, UniProt P32298)",cell-free assay,100
"STK26 (Homo sapiens, UniProt Q9P289)",cell-free assay,100
"EGFR (Homo sapiens, UniProt P00533)",cell-free assay,100
